Assay results gathered from unrelated publications.
Each line is one published result; not all experiments were run side by side. ± marks the error that the study gave.
Method: steady-state kinetics
B1: RbgA (Bacillus subtilis, UniProt O31743); chain MTIQWFPGHMAKARREVTEKLKLIDIVYELVDARIPMSSRNPMIEDILKNKPRIMLLNKADKADAAVTQQWKEHFENQGIRSLSINSVNGQGLNQIVPASKEILQEKFDRMRAKGVKPRAIRALIIGIPNVGKSTLINRLAKKNIAKTGDRPGITTSQQWVKVGKELELLDTPGILWPKFEDELVGLRLAVTGAIKDSIINLQDVAVFGLRFLEEHYPERLKERYGLDEIPEDIAELFDAIGEKRGCLMSGGLINYDKTTEVIIRDIRTEKFGRLSFEQPTM
B2: Saccharopine reductase C154S (Saccharomyces cerevisiae, UniProt P38999); chain MGKNVLLLGSGFVAQPVIDTLAANDDINVTVACRTLANAQALAKPSGSKAISLDVTDDSALDKVLADNDVVISLIPYTFHPNVVKSAIRTKTDVVTSSYISPALRELEPEIVKAGITVMNEIGLDPGIDHLYAVKTIDEVHRAGGKLKSFLSYSGGLPAPEDSDNPLGYKFSWSSRGVLLALRNSAKYWKDGKIETVSSEDLMATAKPYFIYPGYAFVCYPNRDSTLFKDLYHIPEAETVIRGTLRYQGFPEFVKALVDMGMLKDDANEIFSKPIAWNEALKQYLGAKSTSKEDLIASIDSKATWKDDEDRERILSGFAWLGLFSDAKITPRGNALDTLCARLEELMQYEDNERDMVVLQHKFGIEWADGTTETRTSTLVDYGKVGGYSSMAATVGYPVAIATKFVLDGTIKGPGLLAPYSPEINDPIMKELKDKYGIYLKEKTVA
B3: GAR synthetase (Cryptococcus neoformans, UniProt J9VYP5); chain MPEITAFPQPKSDLSILLLGAGGREHALAFKLAQSSRVARIVVCPGNGGTALMGGKVSNLALPWGAPPAFRSIVEWAQKENIDLVVPGPEQPLVDGVEGAFKKVGIPVFGPSPAAAMLEGSKSLSKEFMARHNIPTAAFRSFTSTQYEDAVAYIKSKPFTSGRSVIKASGLAAGKGVLIPETDEEAFAALKSVMVDKEFGDAGDEVVVEEYLSGPEISVLAFSDGYTIVPMPAAQDHKRIGEGDTGLNTGGMGAYAPAPIATKEIMERCVKDVLEPTIKGMREDGYPFVGMLFTGFMITADGPRVLEYNVRFGDPETQALMLLLDEQTDLAEVLLACVERRLDSIKLGYKQGYAVSVVLASEGYPGSYPKGLPMTLNPTPEGVEVFHAGTKRSDNVTVTDGGRVLAVCASAPTLRAAVDLAYSGISQISFQGQTFRRDIAYRALSSEPPAEP
B4: putA D779Y (Bradyrhizobium diazoefficiens, UniProt Q89E26); chain MPNIPPPFTAPYAPDDAEIAARLLPASHLSPPQEARIHRTATRLIEAIRKRDDRLGGVEDMLREFALSTKEGLALMVLAEALLRVPDARTADQFIEDKLGEGDFIHHETKSTAFLVNASAWALGLSARVIQPGETPDGTIGRLVKRLGAPAVRTATRQAMRLMGNHFVLGETIEQALERGKPRSGQKTRYSFDMLGEGARTAADARRYFDAYASAIETIGKAAGNHALPDRPGISVKLSALHPRFEAISRARVMVELVPQLLDLAQRAKAHDLNFTVDAEEADRLELSLDVIAATLADPSLKGWDGFGLAIQAYQKRASAVIDYVDALARAHDRKLMVRLVKGAYWDTEIKRAQERGLDGYPVFTRKAMTDLNYVACASKLLALRPRIFPQFATHNALTVATVLEMAEGSSGFEFQRLHGMGEALYEQLAKDHADIAYRTYAPVGSHRDLLAYLVRRLLENGANSSFVAQAADYRVPVPALLQRPADAIVRPQAAAHPRIPLPCDLFAPERRNSRGVEFGARTALDQLLTDVKAETGDLKPIADATPDQAHAAVAAARAGFAGWSRTPAGIRAAALEQAAHLLESRSAHFIALLQREGGKTLDDALSELREAADFCRYYAAQGRKLFGSETAMPGPTGESNALTMRGRGVFVAISPWNFPLAIFLGQVTAALMAGNSVVAKPAEQTPRIAREAVALLHEAGIPKSALYLVTGDGRIGAALTAHPDIAGVVFTGSTEVARSINRALAAKDGPIVPLIAETGGINAMIADATALPEQVADYVVTSAFRSAGQRCSALRLLFVQEDVADRMIEMVAGAARELKIGDPSDVATHVGPVIDVEAKQRLDAHIARMKTEARLHFAGPAPEGCFVAPHIFELTEAGQLTEEVFGPILHVVRYRPENLERVLRAIERTGYGLTLGVHSRIDDSIEAIIDRVQVGNIYVNRNMIGAVVGVQPFGGNGLSGTGPKAGGPHYLARFATEQTVTINTAAAGGNAALLAGEE
B5: Nudt8 (Mus musculus, UniProt Q9CR24); chain MLPDGLSAEDEQRCRQLLARTTARLRSRPAAAAVLVPLCLVRGVPALLYTLRSSRLVGRHKGEVSFPGGKCDPDDQDVIHTALRETQEELGLEVPKEHVWGVLQPVYDREKATIVPVLANVGPLDLQSLRPNLEEVDEVFEMSLAHLLQTQNQGYTHFCQGGHFSYTLPVFLHGPHRVWGLTAVITELTLKLLAPGFYQPSLAVPELPRG
B6: BshA Y95F (Bacillus subtilis, UniProt P42982); chain MRKLKIGITCYPSVGGSGIIATELGKQLAEKGHEIHFITSSIPFRLNTYHPNIHFHEVEVNQYAVFKYPPYDLTLASKIAEVAERENLDIIHAHFALPHAVCAYLAKQMLKRNIGIVTTLHGTDITVLGYDPSLKDLIRFAIESSDRVTAVSSALAAETYDLIKPEKKIETIYNFIDERVYLKKNTAAIKEKHGILPDEKVVIHVSNFRKVKRVQDVIRVFRNIAGKTKAKLLLVGDGPEKSTACELIRKYGLEDQVLMLGNQDRVEDLYSISDLKLLLSEKESFGLVLLEAMACGVPCIGTNIGGIPEVIKNNVSGFLVDVGDVTAATARAMSILEDEQLSNRFTKAAIEMLENEFSSKKIVSQYEQIYADLAEPE
B7: LYS1 C205S/D319A (Saccharomyces cerevisiae, UniProt P38998); chain MAAVTLHLRAETKPLEARAALTPTTVKKLIAKGFKIYVEDSPQSTFNINEYRQAGAIIVPAGSWKTAPRDRIIIGLKEMPETDTFPLVHEHIQFAHCYKDQAGWQNVLMRFIKGHGTLYDLEFLENDQGRRVAAFGFYAGFAGAALGVRDWAFKQTHSDDEDLPAVSPYPNEKALVKDVTKDYKEALATGARKPTVLIIGALGRSGSGAIDLLHKVGIPDANILKWDIKETSRGGPFDEIPQADIFINCIYLSKPIAPFTNMEKLNNPNRRLRTVVDVSADTTNPHNPIPIYTVATVFNKPTVLVPTTAGPKLSVISIAHLPSLLPREASEFFSHDLLPSLELLPQRKTAPVWVRAKKLFDRHCARVKRSSRL
B8: MCAT R178A (Homo sapiens, UniProt Q8IVS2); chain GQGSQVVGMGRGLLNYPRVRELYAAARRVLGYDLLELSLHGPQETLDRTVHCQPAIFVASLAAVEKLHHLQPSVIENCVAAAGFSVGEFAALVFAGAMEFAEGLYAVKIAAEAMQEASEAVPSGMLSVLGQPQSKFNFACLEAREHCKSLGIENPVCEVSNYLFPDCRVISGHQEALRFLQKNSSKFHFRRTRMLPVSGAFHTRLMEPAVEPLTQALKAVDIKKPLVSVYSNVHAHRYRHPGHIHKLLAQQLVSPVKWEQTMHAIYERKKGRGFPQTFEVGPGRQLGAILKSCNMQAWKSYSAVDVL
B9: protein (Pseudomonas putida, UniProt Q1XGK8); chain MKEIKHFINGAFVGSASGRTFEDINPSNGQVIGHVHEAGRAEVDAAVKAARAALKGPWGKLSVAERAEILHRVADGITARFDEFLEAECLDTGKPKSLASHIDIPRGAANFKVFADLLKNVANEAFEMATPDGAGAINYAVRRPKGVIGVISPWNLPLLLMTWKVGPALACGNTVVVKPSEETPLTATLLGEVMQAAGVPAGVYNVVHGFGGDSAGAFLTEHPDVDAYTFTGETGTGEVIMRAAAKGVRQVSLELGGKNAGIVFADCDMDKAIEGTLRSAFANCGQVCLGTERVYVERPIFDEFVARLKAGAESLMIGPPDDASSNFGPLVSLKHREKVLSYYQQAVDDGGSVITGGGVPDMPAHLAGGAWVQPTIWTGLSDDSAVVTEEIFGPCCHIRPFDTEEEAIELANSLPYGLASAIWTENGSRAHRVAGQIEAGIVWVNSWFLRDLRTAFGGSKQSGIGREGGVHSLEFYTELKNICVKL
B10: enzyme H284A (Daphnia magna, UniProt A0A0A7CK57); chain MVDAAVAEKLEAGFQKLQEATNCKSLLKKHLTREIFDKIKDLKTSFGSTLLDVIQSGVENLDSGFGVYAPDAEAYSVFNDLFEPMICDYHTGFKPGDAHPPRDFGDLETFGNLDPEGAFIVSTRVRCGRSLAGYAFNPCLTEANYKEMEEKVVASLSSLEGELKGTYYPLTGMTKEVQTQLIQDRFLFKEGDRFLQAANACRYWPTGRGIYHNDAKTFLVWCNEEDHLRIISMQKGGDLKAVYARLVNAINEIEKRIPFSHHDKYGFLTFCPTNLGTTIRASVAIALPKLAADLAKLEEAAGKFNLQVRGTAGEHTEAEGGVYDISNKRRMGLTEYQAVKEMYDGLQELIRMEKEAA
UniProt Q9WXT2, sequence (whole entry, looked up): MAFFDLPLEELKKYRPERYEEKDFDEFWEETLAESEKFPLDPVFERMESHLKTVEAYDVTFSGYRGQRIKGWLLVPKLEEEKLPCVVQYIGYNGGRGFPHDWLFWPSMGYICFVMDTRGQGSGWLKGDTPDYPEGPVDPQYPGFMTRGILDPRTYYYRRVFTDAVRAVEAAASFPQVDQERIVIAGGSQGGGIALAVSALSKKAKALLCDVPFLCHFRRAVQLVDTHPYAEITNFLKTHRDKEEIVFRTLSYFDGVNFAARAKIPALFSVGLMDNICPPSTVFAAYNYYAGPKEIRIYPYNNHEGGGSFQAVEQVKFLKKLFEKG

For `enzyme (Mortierella alpina, UniProt U5Y3C6)`, the kcat was 0.005 ± 0.000333 s⁻¹ (CCCCCC/C=C\CCCCCCCC(=O)SCCNC(=O)CCNC(=O)[C@H](O)C(C)(C)COP(=O)(O)OP(=O)(O)OC[C@H]1O[C@@H](n2cnc3c(N)ncnc32)[C@H](O)[C@@H]1OP(=O)(O)O; pH 7.5, 28 °C).
With `B1 (RbgA)` the kcat was 0.00303 ± 8.33e-05 s⁻¹ (Nc1nc2c(ncn2[C@@H]2O[C@H](COP(=O)(O)OP(=O)(O)OP(=O)(O)O)[C@@H](O)[C@H]2O)c(=O)[nH]1; pH 7.5, 37 °C, KCl 200 mM, free enzyme, apparent, added: GTP 0-1 mM).
For `B2 (Saccharopine reductase C154S)`, the kcat was 0.12 ± 0.03 s⁻¹ (N[C@@H](CCCCN[C@@H](CCC(=O)O)C(=O)O)C(=O)O; pH 9, 25 °C, added: saccharopine).
The kcat of `B3 (GAR synthetase)` is reported as 17.3 ± 0.3 s⁻¹ (Nc1ncnc2c1ncn2[C@@H]1O[C@H](COP(=O)(O)OP(=O)(O)OP(=O)(O)O)[C@@H](O)[C@H]1O; pH 8, 37 °C, apparent).
The kcat of `PGDH1 (Amborella trichopoda, UniProt U5D351)` is reported as 20.4 ± 0.4 s⁻¹ (O=C(O)[C@H](O)COP(=O)(O)O; pH 9, 25 °C, NaCl 0.1 M, apparent, added: NAD+).
For `B4 (putA D779Y)`, the kcat was 0.02 ± 0.01 s⁻¹ (O=C(O)[C@@H]1CCC=N1; pH 7.5, 23 °C).
The kcat of `axeA (Thermotoga maritima, UniProt Q9WXT2)` is reported as 69.9 s⁻¹ (CC(=O)Oc1ccc([N+](=O)[O-])cc1; pH 6.5, 50 °C, temperature uncertain, apparent).
`B5 (Nudt8)` gave a kcat of 2.58 ± 0.233 s⁻¹ (CCC(=O)SCCNC(=O)CCNC(=O)[C@H](O)C(C)(C)COP(=O)(O)OP(=O)(O)OC[C@H]1O[C@@H](n2cnc3c(N)ncnc32)[C@H](O)[C@@H]1OP(=O)(O)O; pH 8.5, added: 2 mM Mn2+).
`B6 (BshA Y95F)` gave a kcat of 0.92 ± 0.03 s⁻¹ (O=C(O)C[C@H](O)C(=O)O; pH 7.5, 21 °C, added: UDP-GlcNAc 0–4 mM).
With `B7 (LYS1 C205S/D319A)` the kcat was 35 ± 5 s⁻¹ (NC(=O)C1=CN([C@@H]2O[C@H](COP(=O)(O)OP(=O)(O)OC[C@H]3O[C@@H](n4cnc5c(N)ncnc54)[C@H](O)[C@@H]3O)[C@@H](O)[C@H]2O)C=CC1; pH 7.2, 25 °C, added: Lys and α-Kg).
`B8 (MCAT R178A)` gave a kcat of 0.00483 ± 0.000667 s⁻¹ (CC(=O)SCCNC(=O)CCNC(=O)[C@H](O)C(C)(C)COP(=O)(O)OP(=O)(O)OC[C@H]1O[C@@H](n2cnc3c(N)ncnc32)[C@H](O)[C@@H]1OP(=O)(O)O; pH 6.8, 20 °C, labelled substrate, added: holo-ACP 20 µM).
For `B9 (protein)`, the kcat was 0.9 s⁻¹ (O=C/C=C/C=C(\O)C(=O)O; pH 8.5, 25 °C, NaCl 50 mM, added: NAD+ 200 µM).
For `B10 (enzyme H284A)`, the kcat was 0.19 ± 0.02 s⁻¹ (N=C(N)NCCC[C@H](N)C(=O)O; pH 8.5).
